Results pooled from the literature.
Values joined by “and” are separate records of one study, mostly repeats; a detail may differ. ± marks the error that the study gave.

Compound | test | test system | setting | scale | Cmax
CCCCN1CCN(C(C)C(=O)Nc2c(C)csc2C(=O)OC)CC1 (stereo not drawn) |  | rat (Sprague-Dawley, male), plasma | subcutaneous, 62.3 mmol/L |  | 2540 ng/mL
COC(=O)C1=CO[C@@H](O[C@@H]2O[C@H](CO)[C@@H](O)[C@H](O)[C@H]2O)[C@@H]2C(CO)=CC[C@H]12 |  | rat, plasma | oral, 500 mg/kg Eu extract, dosed as Eu extract |  | 91.8 ± 18.8 ng/mL
Nc1nc(O)c2ncn(COC(CO)CO)c2n1 |  | Sprague-Dawley rat, male | oral, 10 mg/kg |  | 220 ± 110 ng/mL
CC[C@@H]([C@H](C)O)n1ncn(-c2ccc(N3CCN(c4ccc(OC[C@@H]5CO[C@@](Cn6cncn6)(c6ccc(F)cc6F)C5)cc4)CC3)cc2)c1=O |  | Sprague-Dawley rats, plasma | oral, 40 mg/kg, with: zanubrutinib 16 mg/kg |  | 1310 ± 416 ng/mL
CN(C(=O)n1cnc(-c2ccc[n+]([O-])c2)c1)C1CCCCC1 |  | Wistar Han rat, brain | oral, 10 mg/kg, 1 h |  | 840 ± 51 ng/g
C=CC(=O)N1CC2CC(n3nc(-c4ccc(C(=O)Nc5ccccn5)cc4)c4c(N)ncnc43)CC2C1 (stereo not drawn) |  | male Wistar rats, plasma | oral, 3 mg/kg |  | 649 ng/mL
Cc1ccc(S(=O)(=O)n2cc3c4c2C(=O)C(NCc2ccc(Cl)cc2)=CC4=NCC3)cc1 |  | Sprague-Dawley rat, plasma | intravenous, 5 mg/kg |  | 1180 ng/mL and 1360 ng/mL
CCCCCOC(=O)Nc1nc(=O)n([C@@H]2O[C@H](C)[C@@H](O)[C@H]2O)cc1F |  | Sprague-Dawley rat, plasma | oral, 200 mg/kg, with: chitooligosaccharide 20 min before glucosamine 250 mg/kg |  | 27600 ± 3060 ng/mL
C=CC(=O)N1CCC[C@@H](n2nc(-c3ccc(Oc4ccccc4)cc3)c3c(N)ncnc32)C1 |  | Wistar rat, male, small intestine | oral, 50 mg/kg |  | 664 ± 33.2 ng/g
CC(=O)CC(c1ccccc1)c1c(O)c2ccccc2oc1=O (stereo not drawn) |  | Sprague-Dawley rat, male, plasma | oral, 0.2 mg/kg, with: miconazole | relative to: cpd alone | 100%
CNC(=O)c1cccc(-c2ccc(O[C@H]3O[C@H](CO)[C@@H](O)[C@H](O)[C@@H]3O)c(C)c2)c1 |  | male Sprague-Dawley rat, plasma | intravenous, 3 mg/kg, group mean |  | 1590 ng/mL
CCOCC(=O)N1CCC[C@H](C(=O)NCc2nc(-c3ccc(C)nc3)cs2)C1 |  | Sprague-Dawley rat, male, plasma | oral, 3 mg/kg |  | 17 µM
O=C1c2ccncc2C(=O)c2c1[nH]c1ccccc21 |  | Sprague-Dawley rat, male, plasma | intravenous, 5 mg/kg |  | 2.33 ± 0.884 µM
Cc1cccc(CNC(=O)c2cn(CCNC(=O)c3ccccc3S)c3cc4c(cc3c2=O)OC(F)(F)O4)n1 |  | Sprague-Dawley rat, male, plasma | intramuscular, 10 mg/kg of parent drug |  | 7.94 ± 1.29 ng/mL
Cc1cc(-c2ccc3cc[nH]c(=O)c3c2)ccc1O[C@H]1O[C@H](CO)[C@@H](O)[C@H](O)[C@@H]1O |  | Sprague-Dawley rat, male, plasma | oral, 10 mg/kg |  | 5.93 ng/mL
CC(C)c1nc(N(C)S(C)(=O)=O)nc(-c2ccc(F)cc2)c1/C=C/[C@@H](O)C[C@@H](O)CC(=O)O |  | rat, Wistar albino, plasma | oral, 20 mg/kg |  | 850 ng/mL
Cn1c(C(F)(F)F)cc(=O)n(-c2cc(Oc3cccnc3OCC(=O)O)c(Cl)cc2F)c1=O |  | Crl:CD(SD) rats, female, plasma | oral diet, 800 ppm in diet, day 1, 90-day toxicity study |  | 1130 ng/mL

Compound | test | test system | setting | scale | Cmax
CCCCCCCOc1ccc(CCC(N)(CO)CO)cc1C(F)(F)F.Cl |  | male Sprague-Dawley rat, plasma | oral, 1 mg/kg, single dose |  | 4.07 ng/mL
CCc1cc(C(=O)NC)c2nccc(N3CCc4c(cc(Cn5ccnc5)cc4-c4cn(C)nc4C(F)(F)F)C3=O)c2c1 |  | Sprague Dawley rat, male, bile duct-cannulated, plasma | oral, 50 mg/kg |  | 19200 ng/mL
N=C(N)NCCNC(=O)C1(Nc2ccccc2)CCN(Cc2ccccc2)CC1 |  | Sprague-Dawley rats (female), plasma | oral, 50 mg/kg |  | 313 ± 82.7 ng/mL
COc1cc2nccc(Oc3ccc(NC(=O)NC4CC4)c(Cl)c3)c2cc1C(N)=O | UPLC-MS/MS | Sprague-Dawley rat, male, plasma | oral, 10 mg/kg, without azole co-treatment |  | 1020 ng/mL
OCC1=C[C@@H](O)[C@@H]2C=CO[C@@H](O[C@@H]3O[C@H](CO)[C@@H](O)[C@H](O)[C@H]3O)[C@H]12 |  | rat, plasma | oral, 500 mg/kg Eu extract, dosed as Eu extract |  | 106 ± 73.4 ng/mL
C1=C/COCc2cc(ccc2OCCN2CCCC2)Nc2nccc(n2)-c2cccc(c2)COC/1 | LC-MS/MS | Sprague-Dawley rat, male, plasma | oral, 36 mg/kg, with: voriconazole 30 mg/kg oral |  | 358 ± 214 ng/mL
O=c1oc2c(O)c(O)cc3c(=O)oc4c(O)c(O)cc1c4c23 |  | rat, plasma | oral, 500 mg/kg extract, extract |  | 170 ± 10 ng/mL
COc1cc([C@H]2OC[C@H]3[C@@H]2CO[C@@H]3c2ccc(O[C@@H]3O[C@H](CO)[C@@H](O)[C@H](O)[C@H]3O)c(OC)c2)ccc1O[C@@H]1O[C@H](CO)[C@@H](O)[C@H](O)[C@H]1O |  | rat, plasma | oral, 500 mg/kg Eu + 217 mg/kg Pc extract, dosed as combined Eu and Pc extracts |  | 26.3 ± 21.4 ng/mL
O=C(O)CCSC[C@H]1O[C@@H]2O[C@H]3[C@H](O)[C@@H](O)[C@@H](O[C@H]4[C@H](O)[C@@H](O)[C@@H](O[C@H]5[C@H](O)[C@@H](O)[C@@H](O[C@H]6[C@H](O)[C@@H](O)[C@@H](O[C@H]7[C@H](O)[C@@H](O)[C@@H](O[C@H]8[C@H](O)[C@@H](O)[C@@H](O[C@H]9[C@H](O)[C@@H](O)[C@@H](O[C@H]1[C@H](O)[C@H]2O)O[C@@H]9CSCCC(=O)O)O[C@@H]8CSCCC(=O)O)O[C@@H]7CSCCC(=O)O)O[C@@H]6CSCCC(=O)O)O[C@@H]5CSCCC(=O)O)O[C@@H]4CSCCC(=O)O)O[C@@H]3CSCCC(=O)O |  | Sprague Dawley rats, plasma | intravenous, 5 mg/kg, with: rocuronium bromide IV |  | 50600 ng/mL
CCOCC(=O)N1CCC[C@H](C(=O)NCc2nc(-c3ccc(C#N)nc3)cs2)C1 |  | Sprague-Dawley rat, male, plasma | oral, 3 mg/kg |  | 12 µM
CCc1c(-c2ccccc2)c(-c2ccccc2)nn1-c1ccccc1-c1cccc(OCC(=O)O)c1 |  | Sprague-Dawley rat | oral, dose not given |  | 1310 ng/mL and 1260 ng/mL and 2090 ng/mL
CSc1ccccc1C(=O)NCCn1cc(C(=O)NCc2cccc(C)n2)c(=O)c2cc3c(cc21)OC(F)(F)O3 |  | Sprague-Dawley rat, male, plasma | intravenous, 5 mg/kg of parent compound |  | 527 ± 79.1 ng/mL
CN1CCC[C@H](CN2c3ccccc3Sc3ccccc32)C1.Cl |  | female Wistar rat, liver | oral, 16 mg/kg |  | 25500 ng/g
C=CC(=O)N1CCC(Oc2cc3c(Nc4ccc(Cl)c(Cl)c4F)ncnc3cc2OC)CC1 |  | Sprague-Dawley rat, male, plasma | oral, 2 mg/kg, 1 weeks pretreatment, with: Schisandrin B 20 mg/kg daily pretreatment |  | 1680 ± 139 ng/mL
Cc1cccc(CNC(=O)c2cn(CCNC(=O)c3ccccc3Sc3c([N+](=O)[O-])ncn3C)c3cc4c(cc3c2=O)OC(F)(F)O4)n1 |  | Sprague-Dawley rat, male, whole blood | intramuscular, 3 mg/kg of parent drug |  | 15.3 ± 4.8 ng/mL
NCCOCC(=O)N1CCC[C@H](C(=O)NCc2nc(-c3ccc(C(F)(F)F)cc3)cs2)C1 |  | Sprague-Dawley rat, male, plasma | oral, 3 mg/kg |  | 0.022 µM

Excerpt of the above:
Compound | test | test system | setting | scale | Cmax
CNC(=O)c1cccc(-c2ccc(O[C@H]3O[C@H](CO)[C@@H](O)[C@H](O)[C@@H]3O)c(C)c2)c1 |  | male Sprague-Dawley rat, plasma | intravenous, 3 mg/kg, group mean |  | 1590 ng/mL
CCOCC(=O)N1CCC[C@H](C(=O)NCc2nc(-c3ccc(C)nc3)cs2)C1 |  | Sprague-Dawley rat, male, plasma | oral, 3 mg/kg |  | 17 µM
O=C1c2ccncc2C(=O)c2c1[nH]c1ccccc21 |  | Sprague-Dawley rat, male, plasma | intravenous, 5 mg/kg |  | 2.33 ± 0.884 µM
Cc1cccc(CNC(=O)c2cn(CCNC(=O)c3ccccc3S)c3cc4c(cc3c2=O)OC(F)(F)O4)n1 |  | Sprague-Dawley rat, male, plasma | intramuscular, 10 mg/kg of parent drug |  | 7.94 ± 1.29 ng/mL
Cc1cc(-c2ccc3cc[nH]c(=O)c3c2)ccc1O[C@H]1O[C@H](CO)[C@@H](O)[C@H](O)[C@@H]1O |  | Sprague-Dawley rat, male, plasma | oral, 10 mg/kg |  | 5.93 ng/mL
